Measured values from different studies.
A part holds a random share of what one study measured. Changes are numbered by the printed parent chain.

Block 1
Target: CCNE1, cyclin fold, Cln2 fusion (human)
Technique: yeast growth competition, sequencing
Matrix: yeast
Notes: strong parent motif
Relative to: not given
Direction: higher = stronger binding
Parent: BRCA2 docking peptide (human); PSIKRNLLNEFDR; partner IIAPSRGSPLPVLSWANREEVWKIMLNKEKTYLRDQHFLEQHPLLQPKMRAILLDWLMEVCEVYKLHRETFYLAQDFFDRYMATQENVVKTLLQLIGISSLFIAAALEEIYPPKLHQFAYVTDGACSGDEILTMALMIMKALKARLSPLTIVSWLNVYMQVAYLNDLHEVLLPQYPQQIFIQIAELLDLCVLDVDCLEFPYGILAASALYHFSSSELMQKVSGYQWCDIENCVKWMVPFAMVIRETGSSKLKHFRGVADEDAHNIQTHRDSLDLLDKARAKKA
Under “normalised enrichment score”, `PSIKRNRLNEFDR [L7R]` is recorded as 0.729.
For `PSIKRNLLNEFDF [R13F]`, “normalised enrichment score” read 2.73.
`PSIERNLLNEFDR [K4E]`: “normalised enrichment score” -0.13.
Under “normalised enrichment score”, `PSIKRNILNEFDR [L7I]` is recorded as 1.28.
For `PSIKRNLLNWFDR [E10W]`, “normalised enrichment score” read 1.

Block 2
Target: ABI1, truncated, D143A, DHFR fusion (Arabidopsis thaliana)
Technique: DHFR PCA, deep sequencing
Matrix: yeast
Notes: methotrexate growth selection, single substitutions
Together with: (+)-ABA 710 µM
Relative to: wild-type fitted maximum
Direction: higher = stronger binding
Parent: PYL1, truncated, DHFR fusion (Arabidopsis thaliana); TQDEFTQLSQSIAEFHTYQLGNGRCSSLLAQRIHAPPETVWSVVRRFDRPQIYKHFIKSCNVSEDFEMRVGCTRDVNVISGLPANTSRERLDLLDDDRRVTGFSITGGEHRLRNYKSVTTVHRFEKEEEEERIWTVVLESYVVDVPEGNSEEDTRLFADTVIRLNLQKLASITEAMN
`L82G` — result for “relative binding score”: 70.4%.
For `V62E`, “relative binding score” read 52%.
Under “relative binding score”, `T135F` is recorded as -1.26%.
`M68Y` — result for “relative binding score”: 95.1%.
For `T17N`, “relative binding score” read 96.5%.

Block 3
Target: RING finger protein unkempt homolog, zinc fingers 1-6, GST-SBP tag (UNK, Homo sapiens, UniProt Q9C0B0, residues 30-357)
UniProt Q9C0B0, sequence (30-357, looked up): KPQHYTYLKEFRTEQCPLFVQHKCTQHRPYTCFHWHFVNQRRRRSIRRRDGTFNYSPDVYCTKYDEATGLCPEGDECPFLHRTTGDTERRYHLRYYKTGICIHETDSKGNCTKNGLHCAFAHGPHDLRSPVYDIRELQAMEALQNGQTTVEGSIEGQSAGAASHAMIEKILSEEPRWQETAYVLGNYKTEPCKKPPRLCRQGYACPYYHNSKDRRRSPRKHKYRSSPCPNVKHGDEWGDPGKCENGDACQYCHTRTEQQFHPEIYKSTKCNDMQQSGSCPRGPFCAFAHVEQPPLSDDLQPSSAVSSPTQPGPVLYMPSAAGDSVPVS
Technique: RNA Bind-n-Seq
Form: RNA
Matrix: in vitro
Tested at: not given
Notes: RNA with constant flanks, human and mouse sites, ends assumed
Relative to: input RNA pool
Direction: higher = stronger binding
Constant ends, left off below: GGGAGUUCUACAGUCCGACGAUC … CAACAGAGGAUUGAGCAUCA
`AAUGCAGAACAAAUGAAAGCCUUUUGGAAAUUGUCUAGUAUUUCAGAAAAAUCAGAAAAUGGAGGUUCUGGGUCCCUCCGAGCAAAAUUUGAUCUUUCAGAAGGACCUAGUAAACCCACG` gave a bound/input enrichment of 0.468 ratio.
The bound/input enrichment of `UAGCUCCGCAGAGGCGUGGGCUCGAUUCCUCAGGGCCACGUUACCACAGACCUGUUUGUUUCUUAUGCUGUUGUUCGUGGAGUCUCAUGGGAUUGUCUGGUUUCCCUUACAGGGCCCCCU` is reported as 0.208 ratio.
`UCUCCAGAACAUAAAGAACUGUCUAACUCCCCACUCAGGGAGAACAGCUUUGGAUCACCUUUAGAAUUUAGAAACUCAGGCCCACUUGGUACAGAAAUGAAUACUGGAUUUUCUUCUGAG` has a bound/input enrichment of 2.42 ratio.
For `AGAGAACUGGGAAACAUCAUUCAGAAACACGCCCAAGCAAAUGGAUUCUCAGUUGUUCGAAGCUAUUGUGGGCAUGGGAUCCACAAACUUUUCCAUACAGCCCCCAAUGUCCCGCACUAU`, the bound/input enrichment was 0.152 ratio.
`CUGGAGGCCGUCCUGUUGGCCUUGGCCCGCAUCCGCCGCGCCCUGGAGCAGCAGCCCCUGGCAGCCGGGGCGGCGCCUCCCGAGCUGCAGUGGCUCCGAGCGCAGUGUGCCCGCCUCAGC` gave a bound/input enrichment of 0.102 ratio.
For `CAGCACCCCAUCAAACCAGUGGUUCAUCCAACUGCUACCCCAAGCACUGUUCCUUCUAGUCCAUUUACGCUACAGUCUGAUCACCAGCCAAAGAAAUCAUUUGAUGCUAAUGGAGCAUCU`, the bound/input enrichment was 0.733 ratio.
The bound/input enrichment of `GAGGUACUUCUAAAACAUUUCCAAGGUCAAGUUAAUGAGCUGCAGGGUAAACAGGAAUCCCUUGCAGUUUCUCAAGUUCGAGAAGAAAUCCUACAGAAACAGAUUACAAAACUCUUGGAA` is reported as 0.179 ratio.
`GAUCGUCAAUCGAUGUAGGAGGGCAGUGGUCUUGGGUUGAGUCAGAAAGCCUGGGAGGAAACUAGAGAGGAAGCCAGCCAGGACGUGACACUCCUUCAUGGUGUCUGCUUCAGCUCCUAC` has a bound/input enrichment of 0.111 ratio.
`ACUAAUGCAGUAAUUGCUGGGUUGAUAGUAUUGGAAGGAUUGAAGAUUUUAUCAGGAAAAAUAGACCAGUGCAGAACAAUUUUUUUGAAUAAACAACCAAACCCAAGAAAGAAGCUUCUU` has a bound/input enrichment of 0.228 ratio.

Further values, each from its own experiment
With `PhoQ, residues 284 288 289 292 302 303 SNGLAW` the fold induction was 0.995 (PhoP, residues 12 14 15 18 19 NIMAP (Escherichia coli, UniProt P23836); Sort-seq, item: YFP reporter; E. coli; PhoQ-PhoP variant library, together with: 10 µM Mg2+; relative to: high Mg2+ state, higher = stronger signaling).

Some of these lines once more (block 3):
For `AGAGAACUGGGAAACAUCAUUCAGAAACACGCCCAAGCAAAUGGAUUCUCAGUUGUUCGAAGCUAUUGUGGGCAUGGGAUCCACAAACUUUUCCAUACAGCCCCCAAUGUCCCGCACUAU`, the bound/input enrichment was 0.152 ratio.
